Measurements gathered from unrelated publications.
Numbered parts are unrelated; each lists some results of a single study. “And” joins repeats or separate records; there may be more than shown.
Sequence of UniProt O95382 (whole entry, looked up): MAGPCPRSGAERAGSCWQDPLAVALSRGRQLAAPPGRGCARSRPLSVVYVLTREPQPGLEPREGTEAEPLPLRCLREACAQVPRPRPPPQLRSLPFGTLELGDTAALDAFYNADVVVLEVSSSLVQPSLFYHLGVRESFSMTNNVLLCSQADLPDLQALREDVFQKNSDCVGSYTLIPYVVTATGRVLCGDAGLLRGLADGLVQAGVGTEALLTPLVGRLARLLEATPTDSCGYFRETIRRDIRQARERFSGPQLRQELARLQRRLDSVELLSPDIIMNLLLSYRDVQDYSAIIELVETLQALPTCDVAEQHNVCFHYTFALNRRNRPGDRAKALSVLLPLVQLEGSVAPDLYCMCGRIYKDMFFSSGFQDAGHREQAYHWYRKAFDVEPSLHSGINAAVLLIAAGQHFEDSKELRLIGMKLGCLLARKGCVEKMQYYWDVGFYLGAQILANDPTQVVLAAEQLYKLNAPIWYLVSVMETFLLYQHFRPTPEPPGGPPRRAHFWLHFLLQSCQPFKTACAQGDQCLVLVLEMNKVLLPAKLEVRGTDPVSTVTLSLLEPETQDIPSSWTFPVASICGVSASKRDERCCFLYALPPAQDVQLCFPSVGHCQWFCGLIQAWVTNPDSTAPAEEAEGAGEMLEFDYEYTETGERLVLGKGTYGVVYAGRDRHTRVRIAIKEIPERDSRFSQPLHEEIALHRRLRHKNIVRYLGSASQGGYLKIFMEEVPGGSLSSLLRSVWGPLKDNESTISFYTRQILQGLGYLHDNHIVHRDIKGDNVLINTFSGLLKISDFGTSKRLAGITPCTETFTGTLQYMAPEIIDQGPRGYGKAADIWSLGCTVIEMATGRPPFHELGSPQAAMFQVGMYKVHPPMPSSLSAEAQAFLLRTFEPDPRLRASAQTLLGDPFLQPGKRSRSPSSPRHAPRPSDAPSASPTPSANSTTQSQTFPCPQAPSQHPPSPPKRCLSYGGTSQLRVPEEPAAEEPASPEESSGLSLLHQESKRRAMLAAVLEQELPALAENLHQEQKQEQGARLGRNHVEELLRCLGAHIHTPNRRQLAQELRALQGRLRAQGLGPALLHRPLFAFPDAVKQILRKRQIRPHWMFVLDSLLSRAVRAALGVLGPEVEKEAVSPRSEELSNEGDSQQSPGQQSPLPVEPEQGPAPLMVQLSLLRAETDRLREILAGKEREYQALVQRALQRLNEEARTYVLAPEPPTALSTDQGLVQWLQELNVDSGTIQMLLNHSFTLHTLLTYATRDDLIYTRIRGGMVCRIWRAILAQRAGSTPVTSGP
Sequence of UniProt O75914 (whole entry, looked up): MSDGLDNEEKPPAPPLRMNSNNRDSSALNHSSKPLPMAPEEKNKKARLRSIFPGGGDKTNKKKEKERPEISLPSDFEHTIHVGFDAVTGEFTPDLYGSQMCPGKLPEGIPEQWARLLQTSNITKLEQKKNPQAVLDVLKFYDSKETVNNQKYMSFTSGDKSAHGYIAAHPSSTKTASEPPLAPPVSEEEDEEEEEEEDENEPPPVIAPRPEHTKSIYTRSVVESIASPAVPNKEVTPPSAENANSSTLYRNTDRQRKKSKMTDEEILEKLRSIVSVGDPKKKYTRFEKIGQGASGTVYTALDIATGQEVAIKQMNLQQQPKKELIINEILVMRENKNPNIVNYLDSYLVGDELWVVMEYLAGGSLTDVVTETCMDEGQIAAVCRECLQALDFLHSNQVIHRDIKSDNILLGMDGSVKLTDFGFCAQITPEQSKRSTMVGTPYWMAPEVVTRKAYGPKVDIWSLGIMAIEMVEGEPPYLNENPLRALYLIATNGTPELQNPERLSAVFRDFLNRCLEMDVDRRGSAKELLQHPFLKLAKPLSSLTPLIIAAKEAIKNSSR
Sequence of UniProt Q00532 (whole entry, looked up): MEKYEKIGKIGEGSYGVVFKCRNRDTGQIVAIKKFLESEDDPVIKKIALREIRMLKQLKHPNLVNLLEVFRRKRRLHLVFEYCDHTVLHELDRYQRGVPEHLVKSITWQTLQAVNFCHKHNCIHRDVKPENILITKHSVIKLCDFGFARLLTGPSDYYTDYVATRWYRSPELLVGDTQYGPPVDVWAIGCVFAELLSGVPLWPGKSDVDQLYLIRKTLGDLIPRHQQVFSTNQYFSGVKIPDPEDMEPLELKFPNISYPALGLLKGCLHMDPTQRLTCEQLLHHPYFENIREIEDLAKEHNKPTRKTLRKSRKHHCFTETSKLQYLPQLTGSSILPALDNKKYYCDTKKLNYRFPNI

Sample 1 — cell line: U-87 MG; tested at: concentration not given; relative to: DMSO
Compound: CCN1/C(=C/C=C2\CCCC(/C=C/C3=[N+](CC)c4ccccc4C3(C)C)=C2NCCCCCCCCN2CCC(Nc3nc4ccccc4n3Cc3ccc(F)cc3)CC2)C(C)(C)c2ccccc21
test | log2 fold change
item: AHDC1 mRNA | -1.28
item: NUF2 mRNA | -2.01
item: SLC8A1 mRNA | -2.25
item: ATP13A3 mRNA | 1.32
item: CAV2 mRNA | -1.05
item: CRELD2 mRNA | -0.906
item: NRBF2 mRNA | 1.24
item: ADCY9 mRNA | -1.07
item: GCLC mRNA | 2.31
item: HPS3 mRNA | -0.825
item: MRGPRF mRNA | -3.39
item: JPH2 mRNA | -1.67
item: KCTD4 mRNA | -2.98
item: SLC41A2 mRNA | 1.48
item: STX6 mRNA | 0.822
item: SKA3 mRNA | -1.52

Sample 2 — cell line: MDA-MB-468; read-out: cell viability; technique: CellCounting-Lite; tested at: 2000 nM; temperature: 37 °C; direction: higher = more viable cells
SMILES | luminescence signal
CCn1cnc2c(NCc3nc4cc(Cl)c(Cl)cc4[nH]3)nc(N3CCN(C(=O)c4ccccc4)CC3)nc21 | 34000 a.u. and 33800 a.u. and 29300 a.u.
CCn1cnc2c(NCc3nc4cc(Cl)c(Cl)cc4[nH]3)nc(N3CCN(C(=O)c4cccnc4)CC3)nc21 | 31500 a.u. and 29900 a.u. and 34300 a.u.
CCn1cnc2c(NCc3nc4cc(Cl)c(Cl)cc4[nH]3)nc(N3CCn4ncnc4C3)nc21 | 34800 a.u. and 31800 a.u. and 37400 a.u.
CCn1cnc2c(NCc3nc4cc(Cl)c(Cl)cc4[nH]3)nc(N3CCN(Cc4ccncc4)CC3)nc21 | 37400 a.u. and 34200 a.u. and 38800 a.u.
CC(=O)N1CCN(c2nc(NCc3nc4cc(Cl)c(Cl)cc4[nH]3)c3ncn(C(C)C)c3n2)CC1 | 380000 a.u. and 405000 a.u. and 412000 a.u.
CCn1cnc2c(NCc3nc4cc(F)c(F)cc4[nH]3)nc(N3CCn4ncnc4C3)nc21 | 34900 a.u. and 35700 a.u. and 33000 a.u.
CCn1cnc2c(NCc3nc4cc(Cl)c(Cl)cc4[nH]3)nc(N3CCN(C(C)=O)CC3)nc21 | 34400 a.u. and 33400 a.u. and 28500 a.u.
CCCCOc1nc(NCc2nc3cc(Cl)c(Cl)cc3[nH]2)c2ncn(CC)c2n1 | 39500 a.u. and 46700 a.u. and 40000 a.u.
CCn1cnc2c(NCc3nc4cc(Cl)c(Cl)cc4[nH]3)nc(N3CCN(C(=O)CNC(C)=O)CC3)nc21 | 42400 a.u. and 33800 a.u. and 44200 a.u.
CC(=O)N1CCN(c2nc(NCc3nc4cc(Cl)c(Cl)cc4[nH]3)c3ncn(C)c3n2)CC1 | 43700 a.u. and 35800 a.u. and 39700 a.u.

Sample 3 — read-out: thermal unfolding; technique: differential scanning fluorimetry; tested at: 5.5 µM; direction: higher = more unfolded
Structure (SMILES): C[C@@H]1CN(c2ccc(-c3cc(C(=O)NCCOCCOCCOCCOCCNC(=O)/C=C/c4[nH]cc(C(=O)N[C@@H](CC(N)=O)c5ccc(F)c(Cl)c5)c4-c4ccc(Cl)cc4F)ccc3F)cc2NC(=O)c2c[nH]c(=O)cc2C(F)(F)F)C[C@H](C)N1C
WDR5: WD repeat-containing protein 5 (WDR5, Homo sapiens, UniProt P61964)
DCAF1: DDB1- and CUL4-associated factor 1 (DCAF1, Homo sapiens, UniProt Q9Y4B6)
Sequence of UniProt Q9Y4B6 (whole entry, looked up): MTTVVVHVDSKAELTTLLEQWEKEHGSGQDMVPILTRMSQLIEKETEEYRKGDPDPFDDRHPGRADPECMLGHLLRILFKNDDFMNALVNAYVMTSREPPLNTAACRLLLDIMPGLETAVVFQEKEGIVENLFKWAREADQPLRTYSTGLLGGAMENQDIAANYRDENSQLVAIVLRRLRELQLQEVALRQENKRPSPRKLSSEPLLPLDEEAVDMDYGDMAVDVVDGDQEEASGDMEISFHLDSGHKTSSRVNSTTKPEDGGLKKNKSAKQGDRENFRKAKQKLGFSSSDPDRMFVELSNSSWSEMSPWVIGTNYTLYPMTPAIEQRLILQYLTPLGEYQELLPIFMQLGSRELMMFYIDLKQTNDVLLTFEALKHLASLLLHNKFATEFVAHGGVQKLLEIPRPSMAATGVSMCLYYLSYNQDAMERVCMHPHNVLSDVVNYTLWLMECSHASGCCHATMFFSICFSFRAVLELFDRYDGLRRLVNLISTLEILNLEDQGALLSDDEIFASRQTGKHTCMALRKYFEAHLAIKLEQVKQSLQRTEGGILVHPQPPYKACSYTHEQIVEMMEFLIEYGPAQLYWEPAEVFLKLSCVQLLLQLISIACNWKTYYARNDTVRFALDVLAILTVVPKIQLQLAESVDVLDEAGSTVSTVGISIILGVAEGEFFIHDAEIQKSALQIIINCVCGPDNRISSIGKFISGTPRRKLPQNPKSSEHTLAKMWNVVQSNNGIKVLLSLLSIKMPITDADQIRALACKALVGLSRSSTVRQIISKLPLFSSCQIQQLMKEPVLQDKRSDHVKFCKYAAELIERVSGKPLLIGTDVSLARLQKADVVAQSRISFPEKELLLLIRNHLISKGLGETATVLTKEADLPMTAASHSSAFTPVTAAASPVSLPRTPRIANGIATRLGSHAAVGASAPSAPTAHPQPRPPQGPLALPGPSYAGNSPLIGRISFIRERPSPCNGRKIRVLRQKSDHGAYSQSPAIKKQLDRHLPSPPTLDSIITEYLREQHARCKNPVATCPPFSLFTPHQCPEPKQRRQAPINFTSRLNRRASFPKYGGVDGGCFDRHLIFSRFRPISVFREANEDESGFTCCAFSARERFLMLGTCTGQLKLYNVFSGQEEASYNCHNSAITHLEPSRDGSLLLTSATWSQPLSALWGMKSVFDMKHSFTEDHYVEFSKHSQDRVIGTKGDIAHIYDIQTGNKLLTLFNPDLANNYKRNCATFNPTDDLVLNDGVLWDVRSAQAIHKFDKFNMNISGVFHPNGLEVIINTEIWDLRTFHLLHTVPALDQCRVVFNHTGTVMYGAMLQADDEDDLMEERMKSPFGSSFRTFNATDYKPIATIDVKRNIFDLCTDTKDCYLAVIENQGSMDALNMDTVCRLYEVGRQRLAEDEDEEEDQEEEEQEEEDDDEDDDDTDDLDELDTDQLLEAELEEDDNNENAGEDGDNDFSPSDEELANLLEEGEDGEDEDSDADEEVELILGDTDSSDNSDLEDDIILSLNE
target | conditions | SYPRO Orange fluorescence [a.u.]
WDR5 | 55.21 °C | 16800
DCAF1 | 53.61 °C | 18800
WDR5 | 51 °C | 16700
WDR5 | 47.8 °C | 15900
DCAF1 | 52.2 °C | 17100
WDR5 | 60.01 °C | 15600
DCAF1 | 44 °C | 12600
WDR5 | 63.41 °C | 14100
DCAF1 | 65.21 °C | 59000
WDR5 | 36.6 °C | 13500
DCAF1 | 36.6 °C | 10500

Sample 4 — Structure (SMILES): O=C(Nc1ccccc1)Nc1cccc(Oc2ccc3nccn3n2)c1; tested at: 1 µM
target | conditions | remaining activity
SNF-related serine/threonine-protein kinase (SNRK, Homo sapiens, UniProt Q9NRH2) | – | 100%
Casein kinase I isoform gamma-2 (CSNK1G2, Homo sapiens, UniProt P78368) | – | 100%
Serine/threonine-protein kinase PAK 3 (PAK3, Homo sapiens, UniProt O75914) | – | 100%
Phosphorylase b kinase gamma catalytic chain, skeletal muscle/heart isoform (PHKG1, Homo sapiens, UniProt Q16816) | – | 100%
Cyclin-dependent kinase-like 1 (CDKL1, Homo sapiens, UniProt Q00532) | – | 88%
Transient receptor potential cation channel subfamily M member 6 (TRPM6, Homo sapiens, UniProt Q9BX84) | – | 100%
Mitogen-activated protein kinase kinase kinase 6 (MAP3K6, Homo sapiens, UniProt O95382) | ASK2 construct | 100%
Serine/threonine-protein kinase D2 (PRKD2, Homo sapiens, UniProt Q9BZL6) | – | 93%
Serine/threonine-protein kinase BRSK2 (BRSK2, Homo sapiens, UniProt Q8IWQ3) | – | 100%
Epidermal growth factor receptor (EGFR, Homo sapiens, UniProt P00533, del752-759) | – | 91%
Phosphorylase b kinase gamma catalytic chain, liver/testis isoform (PHKG2, Homo sapiens, UniProt P15735) | – | 91%
cAMP-dependent protein kinase catalytic subunit PRKX (PRKX, Homo sapiens, UniProt P51817) | – | 100%
Tyrosine-protein kinase JAK1 (JAK1, Homo sapiens, UniProt P23458) | JH1 catalytic domain | 84%
Phosphatidylinositol 5-phosphate 4-kinase type-2 gamma (PIP4K2C, Homo sapiens, UniProt Q8TBX8) | PIP5K2C construct | 52%
Ribosomal protein S6 kinase alpha-3 (RPS6KA3, Homo sapiens, UniProt P51812) | kinase domain 2 C-terminal | 68%

A few entries again (sample 1):
test | log2 fold change
item: ADCY9 mRNA | -1.07
item: GCLC mRNA | 2.31
item: HPS3 mRNA | -0.825
item: MRGPRF mRNA | -3.39
item: JPH2 mRNA | -1.67
